Assay results collected from several papers.
Protocols differ between the studies behind these lines. ± gives the spread as reported. Converted amounts (≈) assume the structure as drawn.

SMILES | test | test system | setting | scale | endpoint | value
CC(C)[C@@H]1NC(=O)[C@H](Cc2ccccc2)NC(=O)[C@H](Cc2ccc(O)cc2)NC(=O)CCSSC[C@@H](C(=O)N2CCC[C@H]2C(=O)N[C@H](CCCNC(=N)N)C(=O)NCC(N)=O)NC(=O)[C@H](CCC(N)=O)NC1=O | – | Wistar rat, blood | intravenous, 10 µg/kg single dose, 72 h | – | AST | 51.2 ± 30.6 IU/L
COc1cc(NC(=O)C(=O)c2c(C)n(Cc3ccc(Cl)cc3)c3ccc(C)cc23)ccn1 | – | cynomolgus monkey, both sexes, urine | oral, 1000 mg/kg once daily, day 5, up to 24 h | – | number of urine metabolites | 17
CC(=O)NC1C(OC2OC(CC(O)C3OC(n4ccc(=O)[nH]c4=O)C(O)C3O)C(O)C(O)C2NC(=O)COCc2ccc(N3CCC(Oc4ccc(OC(F)(F)F)cc4)CC3)cc2)OC(CO)C(O)C1O (stereo not drawn) | – | – | neutral form | – | water solubility | 12.5 mg/mL (≈ 12.3 mM)
CC[C@H](C)[C@@H]1NC(=O)[C@H](CCCCN)NC(=O)[C@H](CCCCN)NC(=O)[C@H](Cc2ccc(O)cc2)NC(=O)[C@H](CC(C)C)NC(=O)[C@@H]2CCCN2C(=O)[C@H](C)NC(=O)CNC(=O)CNC(=O)[C@H](CO)NC(=O)CNC(=O)CNC(=O)[C@H](CO)NC(=O)[C@H](CCC(=O)O)NC(=O)[C@H](CC(C)C)NC(=O)[C@H](CC(C)C)NC(=O)[C@H](CCCCN)NC(=O)[C@H](CCCCN)NC(=O)[C@H]([C@@H](C)CC)NC(=O)[C@H]([C@@H](C)CC)NC(=O)[C@H](CCCCN)NC(=O)[C@H](CCCCN)NC(=O)[C@H](Cc2ccc(O)cc2)NC(=O)[C@H](CC(C)C)NC(=O)[C@@H]2CCCN2C(=O)CNC(=O)CNC(=O)[C@@H](NC(=O)CN)CSSC[C@@H](C(=O)O)NC(=O)[C@H](CC(C)C)NC(=O)[C@H](CCCCN)NC(=O)[C@H](CCCCN)NC(=O)[C@H]([C@@H](C)CC)NC1=O | – | 25% human serum | 50 µM, 24 h | relative to: 0 h control | remaining intact peptide | 4.9 ± 0.1%
CC[C@H](C)C(=O)N1CCC(NC(=O)Nc2ccc(OC(F)(F)F)c(F)c2)CC1 | – | healthy volunteers | oral, 24 mg single dose | – | subjects with UTI TEAE | 0%
Cc1ccc(C(C)C)cc1.O=C(N=P(c1ccccc1)(c1ccccc1)c1ccccc1)c1ccccn1.[Cl-].[Cl-].[Ru+2] | – | C57BL/6 mice | intraperitoneal | – | lethal dose | 30 mg/kg/day
CC[C@H](C)[C@H](NC(=O)[C@H](Cc1ccccc1)NC(=O)[C@@H]1CCCN1C(=O)[C@H](CCCCN)NC(=O)[C@H](CCCCN)NC(=O)[C@H](Cc1ccccc1)NC(=O)[C@H](Cc1ccccc1)NC(=O)[C@@H](C)NC(=O)[C@@H](N)Cc1ccc(O)cc1)C(=O)N[C@@H](CC(C)C)C(=O)O | – | anesthetized rat | intrathecal, 10 nmol/rat, 1 to 5 min | – | maximum minute ventilation | 122 ± 13 mL/min
CC(=O)[O-].CN1CCCN2CCN(C)CCCN(CC1)CC2.F[P-](F)(F)(F)(F)F.[Co+2] | cyclic voltammetry, refers to: first Co2+/Co3+ couple | acetonitrile | – | – | peak separation | 220 mV
O=C(NCCCCCn1ccc2ccc(F)cc21)Oc1cccc(F)c1 | – | porcine liver S9 fraction | 20 µM, 30 min | – | parent remaining | 62 ± 5%
O=C(CN1CCN(c2cc3c(cc2F)c(=O)c(C(=O)O)cn3C2CC2)CC1)Nc1ccc(Cl)cc1 | – | mouse, plasma | intravenous, 1.25 mg/kg | – | MRT | 492 min
CC(C)C[C@H](NC(=O)[C@H](CCCCN)NC(=O)[C@H](CCC(=O)O)NC(=O)[C@H](C)NC(=O)[C@@H](NC(=O)[C@H](CCCCN)NC(=O)[C@H](CC(=O)O)NC(=O)[C@H](Cc1ccc(O)cc1)NC(=O)[C@H](Cc1ccccc1)NC(=O)[C@H](C)NC(=O)[C@H](CCCCN)NC(=O)[C@H](CC(C)C)NC(=O)[C@H](Cc1c[nH]c2ccccc12)NC(=O)[C@@H](N)CC(=O)O)C(C)C)C(=O)N[C@@H](CCCCN)C(=O)N[C@@H](CCC(=O)O)C(=O)N[C@@H](C)C(=O)N[C@@H](Cc1ccccc1)C(=O)N1CCC[C@H]1C(=O)N[C@@H](CC(=O)O)C(=O)N[C@@H](Cc1c[nH]c2ccccc12)C(=O)N[C@@H](C)C(=O)N[C@@H](CCCCN)C(=O)N[C@@H](C)C(=O)N[C@@H](C)C(=O)N[C@@H](Cc1ccc(O)cc1)C(=O)N[C@@H](CC(=O)O)C(=O)N[C@@H](CCCCN)C(=O)N[C@@H](C)C(=O)N[C@@H](C)C(=O)N[C@@H](CCC(=O)O)C(=O)N[C@@H](CCCCN)C(=O)N[C@@H](C)C(=O)N[C@@H](CCCCN)C(=O)N[C@@H](CCC(=O)O)C(=O)N[C@@H](C)C(=O)N[C@@H](C)C(=O)O | – | cynomolgus monkey male, plasma | intravenous infusion, 8 mg/kg every other day, day 27 | – | Tmax | 0 h
CN(C)C(CNC(=O)Nc1cc(C(F)(F)F)ccc1N1CCOCC1)c1ccncc1 (stereo not drawn) | – | mouse, serum | intraperitoneal, 360 mg/kg single dose | – | serum cholesterol | 35 mg/dL
CC[C@H](C)[C@H](NC(=O)[C@H](CC(=O)O)NC(=O)[C@H](CO)NC(=O)[C@H](CCC(N)=O)NC(=O)[C@H](C)NC(=O)[C@H](CC(=O)O)NC(=O)[C@H](CCC(=O)O)NC(=O)[C@H](Cc1c[nH]cn1)NC(=O)[C@H](Cc1ccc(O)cc1)NC(=O)[C@H](C)NC(=O)[C@H](CC(=O)O)NC(=O)[C@H](CCC(=O)O)NC(=O)[C@H](Cc1c[nH]cn1)NC(=O)[C@H](Cc1ccc(O)cc1)NC(=O)[C@H](C)NC(=O)[C@H](CC(=O)O)NC(=O)[C@H](CCC(=O)O)NC(=O)[C@H](Cc1c[nH]cn1)NC(=O)[C@H](Cc1ccc(O)cc1)NC(=O)[C@H](C)NC(=O)[C@H](CC(=O)O)NC(=O)[C@H](CCC(=O)O)NC(=O)[C@H](Cc1c[nH]cn1)NC(=O)[C@H](Cc1ccc(O)cc1)NC(=O)[C@H](C)NC(=O)[C@H](CC(=O)O)NC(=O)[C@H](CCC(=O)O)NC(=O)[C@H](Cc1c[nH]cn1)NC(=O)[C@@H](N)Cc1ccc(O)cc1)C(=O)N[C@H](C(=O)N[C@@H](C)C(=O)N[C@@H](Cc1c[nH]cn1)C(=O)N[C@@H](CC(C)C)C(=O)N[C@@H](CC(C)C)C(=O)O)C(C)C | – | mouse, SN model | dose not given | – | AST | 92 ± 5 IU/L
CN[C@](C)(C[18F])C(=O)O | – | mouse, pancreas | 15 min, tumour-bearing | – | tracer uptake | 57 %ID/g
CCN(Cc1ccccc1)C(=O)CCc1nc(CN2CCN(C(=O)Cc3ccc(OC)c(OC)c3)CC2)no1 | – | rat, plasma | intravenous, 1 mg/kg, 30 min | – | concentration | 122 ng/mL
CC(=O)N[C@@H](Cc1ccc(O)cc1)C(=O)N[C@@H](CC(C)C)C(=O)N[C@@H](CS)C(=O)N[C@@H](CO)C(=O)N[C@@H](CO)C(=O)N[C@@H](CC(N)=O)C(=O)N[C@@H](CC(N)=O)C(=O)N[C@@]1(C)CCCC=CCCC[C@@](C)(C(=O)N[C@@H](CCCCN)C(=O)N[C@@H](Cc2ccccc2)C(=O)N[C@@H](CCCNC(=N)N)C(=O)N[C@@H](CCCNC(=N)N)C(=O)NCC(=O)NCC(=O)N[C@@H](CO)C(=O)NCC(=O)NCC(=O)N[C@H](C(=O)N[C@@H](CO)C(=O)N[C@@H](Cc2ccccc2)C(=O)N[C@@]2(C)CCCC=CCCC[C@@](C)(C(=O)N[C@@H](Cc3c[nH]c4ccccc34)C(=O)N[C@@H](CC(C)C)C(=O)N[C@@H](Cc3c[nH]c4ccccc34)C(=O)N3CCC[C@H]3C(N)=O)NC(=O)[C@H](Cc3c[nH]c4ccccc34)NC(=O)[C@H](Cc3ccccc3)NC(=O)[C@H](CCC(N)=O)NC2=O)[C@@H](C)O)NC(=O)[C@H](CCCNC(=N)N)NC(=O)[C@H](CCC(=O)O)NC(=O)[C@H](CCCNC(=N)N)NC1=O | – | C57BL/6J mouse, male, plasma | intraperitoneal, dose not given | – | AUC | 1280 µg·h/mL
CNC(=O)Oc1cc(C)c(S(C)(=O)=O)c(C)c1 | – | human liver mitochondrial preparation | 1 µM, 30 min, 0.5 mg/mL protein | – | percent metabolized | 33.1%
NC(=O)N[C@H]1CC[C@H](CCN2CCN(c3cccc(Cl)c3Cl)CC2)CC1 | – | Wistar rat, male, plasma and brain | oral, 0.9 mg/kg | – | Tmax | 1 to 2 h
COC(=O)C[C@](O)(CCCC(C)(C)OC(C)=O)C(=O)O[C@@H]1C(OC)=C[C@]23CCCN2CCc2cc4c(cc2[C@H]13)OCO4 | – | CD1 mouse, brain | subcutaneous, 1 mg/kg, 24 h, below quantification limit 1.00 ng/mL | – | tissue concentration | not detected
COc1ccc([N+]#[C][Re]2(=[C]=O)(=[C]=O)(=[C]=O)[N]3C(C)=CC=c4ccc5c(c43)[N]2C(C)=CC=5)cc1.O=S(=O)([O-])C(F)(F)F | – | PBS | 10 µM, air-equilibrated | – | luminescence lifetime | 1 µs
CCCCCCCCCCCCC(=O)O.O=C1CCCC2C3CCCN4CCCC(CN12)C34 (stereo not drawn) | electrical conductivity | water | 293.15 K | – | standard Gibbs energy of aggregation | -34.7 kJ/mol

A few entries again:
SMILES | test | test system | setting | scale | endpoint | value
O=C(NCCCCCn1ccc2ccc(F)cc21)Oc1cccc(F)c1 | – | porcine liver S9 fraction | 20 µM, 30 min | – | parent remaining | 62 ± 5%
O=C(CN1CCN(c2cc3c(cc2F)c(=O)c(C(=O)O)cn3C2CC2)CC1)Nc1ccc(Cl)cc1 | – | mouse, plasma | intravenous, 1.25 mg/kg | – | MRT | 492 min
